# Published values collected from several papers.
# Each numbered part is a random draw from the data of one study; scales do not carry over between parts. “And” joins repeats or separate records; there may be more than shown. pIC50: −log10 of the molar value.
# Chain of UniProt P11247 (whole entry, looked up): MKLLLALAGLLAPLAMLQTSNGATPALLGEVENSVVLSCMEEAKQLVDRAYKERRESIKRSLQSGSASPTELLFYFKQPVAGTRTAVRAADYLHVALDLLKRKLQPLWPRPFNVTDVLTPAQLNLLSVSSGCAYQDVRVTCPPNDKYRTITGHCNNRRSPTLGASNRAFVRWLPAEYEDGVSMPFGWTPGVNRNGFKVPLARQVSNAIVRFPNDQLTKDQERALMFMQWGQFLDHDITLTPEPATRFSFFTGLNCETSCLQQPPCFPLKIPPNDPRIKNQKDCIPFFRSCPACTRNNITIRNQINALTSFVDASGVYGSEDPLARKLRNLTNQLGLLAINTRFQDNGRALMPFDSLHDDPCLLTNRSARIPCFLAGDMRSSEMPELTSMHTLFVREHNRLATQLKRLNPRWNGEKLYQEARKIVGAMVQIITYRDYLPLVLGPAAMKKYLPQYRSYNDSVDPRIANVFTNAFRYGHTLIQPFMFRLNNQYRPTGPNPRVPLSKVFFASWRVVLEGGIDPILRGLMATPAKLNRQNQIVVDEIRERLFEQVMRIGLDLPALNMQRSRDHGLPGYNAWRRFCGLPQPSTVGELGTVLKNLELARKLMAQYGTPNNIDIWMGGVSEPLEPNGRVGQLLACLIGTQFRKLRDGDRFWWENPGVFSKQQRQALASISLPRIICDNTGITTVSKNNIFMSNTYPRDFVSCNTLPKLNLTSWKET
# Chain of UniProt Q96SW2 (whole entry, looked up): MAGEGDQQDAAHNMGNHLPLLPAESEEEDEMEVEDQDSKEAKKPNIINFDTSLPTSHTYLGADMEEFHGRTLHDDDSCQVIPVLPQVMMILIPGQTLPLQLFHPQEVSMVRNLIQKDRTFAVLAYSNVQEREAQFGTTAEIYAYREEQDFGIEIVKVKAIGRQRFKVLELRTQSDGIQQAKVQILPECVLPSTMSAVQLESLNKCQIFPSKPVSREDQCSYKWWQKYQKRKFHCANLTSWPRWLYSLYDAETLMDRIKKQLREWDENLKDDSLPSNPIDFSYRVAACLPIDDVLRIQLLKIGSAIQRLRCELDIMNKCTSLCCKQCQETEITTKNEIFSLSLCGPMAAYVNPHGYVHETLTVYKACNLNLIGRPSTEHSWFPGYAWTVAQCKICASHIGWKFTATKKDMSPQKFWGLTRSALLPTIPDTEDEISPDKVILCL

# Block 1
# Structure (SMILES): Cc1ncsc1-c1ccc(C(CO)NC(=O)C2CC(O)CN2C(=O)C(C(C)C)n2cc(-c3ccc(COc4c(-c5c(C)c(F)cc6[nH]ncc56)c(C5CC5)cc5c(N6CC7CC6CN7)nc(OC6CCOCC6)nc45)cc3)nn2)cc1 (stereo not shown)
test system,conditions,body weight
"mouse, lung LXFA sample B PDX","10 mg/kg twice weekly, day 0",22.6 g and 27 g
"mouse, lung LXFA sample B PDX","30 mg/kg twice weekly, day 7",26.6 g and 22.9 g
"mouse, PK-1 xenograft","30 mg/kg twice weekly, day 0",24.9 g
"mouse, ASPC1 xenograft","30 mg/kg twice weekly, day 7",25 g
"mouse, PK-59 xenograft","1 mg/kg, day 14",24.5 g and 30.4 g and 26.1 g
"mouse, PK-59 xenograft","subcutaneous, 30 mg/kg once daily, day 20",19.9 g and 18.8 g and 19.4 g and 20 g and 18 g
"mouse, PK-59 xenograft","3 mg/kg, day 4",24.7 g
"mouse, PK-59 xenograft","subcutaneous, 30 mg/kg once daily, day 13",21.4 g and 19.5 g and 20.6 g and 19 g and 18.4 g
"mouse, GP2d xenograft","30 mg/kg once weekly, day 0",23.3 g

# Block 2
# SMILES: C[C@@H]1CN(c2ccc(-c3cc(C(=O)NCCOCCOCCOCCOCCNC(=O)/C=C/c4[nH]cc(C(=O)N[C@@H](CC(N)=O)c5ccc(F)c(Cl)c5)c4-c4ccc(Cl)cc4F)ccc3F)cc2NC(=O)c2c[nH]c(=O)cc2C(F)(F)F)C[C@H](C)N1C
# Observed: thermal unfolding
# Technique: differential scanning fluorimetry
# Tested at: 5.5 µM
# Reading: higher = more unfolded
# DCAF1: DDB1- and CUL4-associated factor 1 (DCAF1, Homo sapiens, UniProt Q9Y4B6)
# Chain of UniProt Q9Y4B6 (whole entry, looked up): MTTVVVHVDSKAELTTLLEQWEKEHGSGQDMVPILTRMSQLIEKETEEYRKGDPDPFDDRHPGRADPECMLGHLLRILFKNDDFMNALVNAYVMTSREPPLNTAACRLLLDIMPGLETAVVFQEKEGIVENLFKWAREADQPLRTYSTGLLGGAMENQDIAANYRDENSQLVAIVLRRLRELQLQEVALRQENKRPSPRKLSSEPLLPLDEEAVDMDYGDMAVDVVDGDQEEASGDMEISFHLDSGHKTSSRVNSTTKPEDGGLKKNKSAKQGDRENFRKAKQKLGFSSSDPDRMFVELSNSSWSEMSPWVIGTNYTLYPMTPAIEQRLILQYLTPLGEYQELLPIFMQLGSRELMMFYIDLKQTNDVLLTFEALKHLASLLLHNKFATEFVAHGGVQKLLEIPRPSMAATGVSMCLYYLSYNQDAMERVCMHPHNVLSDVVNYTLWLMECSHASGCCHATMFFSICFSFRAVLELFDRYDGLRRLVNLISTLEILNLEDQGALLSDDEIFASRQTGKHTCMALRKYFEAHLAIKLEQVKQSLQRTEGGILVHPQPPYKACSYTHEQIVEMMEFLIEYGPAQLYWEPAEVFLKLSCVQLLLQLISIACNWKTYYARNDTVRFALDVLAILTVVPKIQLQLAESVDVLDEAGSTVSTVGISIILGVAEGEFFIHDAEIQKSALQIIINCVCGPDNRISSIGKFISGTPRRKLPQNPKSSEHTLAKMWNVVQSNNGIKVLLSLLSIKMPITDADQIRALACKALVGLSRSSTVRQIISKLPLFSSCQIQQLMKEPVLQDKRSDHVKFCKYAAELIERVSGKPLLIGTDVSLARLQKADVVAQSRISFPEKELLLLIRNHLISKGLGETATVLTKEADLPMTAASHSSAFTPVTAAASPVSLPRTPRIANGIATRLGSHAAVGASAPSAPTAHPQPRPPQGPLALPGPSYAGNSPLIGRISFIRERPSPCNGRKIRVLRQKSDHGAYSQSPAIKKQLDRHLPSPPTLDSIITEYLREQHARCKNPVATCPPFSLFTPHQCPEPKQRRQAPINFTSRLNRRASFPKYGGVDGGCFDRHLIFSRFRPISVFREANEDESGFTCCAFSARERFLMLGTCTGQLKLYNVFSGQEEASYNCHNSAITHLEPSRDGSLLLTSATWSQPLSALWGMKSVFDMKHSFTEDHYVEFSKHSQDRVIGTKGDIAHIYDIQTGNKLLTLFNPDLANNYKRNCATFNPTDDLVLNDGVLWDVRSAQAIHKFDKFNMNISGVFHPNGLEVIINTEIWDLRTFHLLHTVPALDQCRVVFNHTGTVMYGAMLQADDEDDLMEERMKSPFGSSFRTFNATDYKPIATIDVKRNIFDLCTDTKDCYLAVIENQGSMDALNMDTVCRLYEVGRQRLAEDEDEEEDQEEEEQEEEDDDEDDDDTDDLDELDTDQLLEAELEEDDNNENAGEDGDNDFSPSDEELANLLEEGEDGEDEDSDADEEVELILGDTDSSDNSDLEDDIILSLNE
# WDR5: WD repeat-containing protein 5 (WDR5, Homo sapiens, UniProt P61964)
target,conditions,SYPRO Orange fluorescence
DCAF1,35 °C,10200 a.u.
DCAF1,47.8 °C,14200 a.u.
DCAF1,92.21 °C,32600 a.u.
DCAF1,45 °C,13000 a.u.
DCAF1,50.2 °C,15300 a.u.
WDR5,50.4 °C,16500 a.u.
WDR5,88.61 °C,52600 a.u.
DCAF1,25.8 °C,8960 a.u.

# Mixed results
# MPO: Myeloperoxidase (MPO, Homo sapiens, UniProt P05164)
# Chain of UniProt P05164 (whole entry, looked up): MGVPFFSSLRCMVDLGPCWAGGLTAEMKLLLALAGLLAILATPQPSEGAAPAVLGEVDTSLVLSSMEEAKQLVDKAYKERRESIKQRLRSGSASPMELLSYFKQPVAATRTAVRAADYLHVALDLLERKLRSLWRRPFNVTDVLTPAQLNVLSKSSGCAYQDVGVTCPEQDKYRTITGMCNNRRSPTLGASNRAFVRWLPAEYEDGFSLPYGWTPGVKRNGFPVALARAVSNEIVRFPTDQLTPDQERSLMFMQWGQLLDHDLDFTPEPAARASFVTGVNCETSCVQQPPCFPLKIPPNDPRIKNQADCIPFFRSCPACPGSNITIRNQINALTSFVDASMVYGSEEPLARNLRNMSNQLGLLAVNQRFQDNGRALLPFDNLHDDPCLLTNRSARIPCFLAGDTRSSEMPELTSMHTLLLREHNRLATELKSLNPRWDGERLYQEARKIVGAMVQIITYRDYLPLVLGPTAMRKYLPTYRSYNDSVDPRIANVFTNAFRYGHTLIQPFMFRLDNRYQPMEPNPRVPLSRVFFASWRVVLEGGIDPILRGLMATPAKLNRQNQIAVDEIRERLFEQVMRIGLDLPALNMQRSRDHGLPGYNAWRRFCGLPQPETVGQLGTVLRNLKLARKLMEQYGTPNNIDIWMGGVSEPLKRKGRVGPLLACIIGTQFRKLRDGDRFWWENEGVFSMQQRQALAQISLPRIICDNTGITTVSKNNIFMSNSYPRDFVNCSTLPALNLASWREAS
Compound,target or system,test,test system,conditions,endpoint,value
"Cc1ccc(O)c(C)c1-c1cnc2[nH]c(-c3cnc(N4CCC5(CC4)CC(N4CCN(c6ccc(N[C@H]7CCC(=O)NC7=O)cc6F)CC4)CO5)nc3)cc2c1C#N (single isomer, unassigned)",,,"male beagle dog, plasma","intravenous, 1 mg/kg",Vd,3.3 L/kg
CC(C)(C)NC(=O)c1ccc(OC/C(=C/F)CN)cc1,MPO,"enzyme activity, inhibitor, fluorescence",,0.3704 µM,inhibition,-6.83% and -9.19% and -12.4%
Cc1ccc(O)c(C)c1-c1cnc2[nH]c(-c3cnc(N4CCC(CN5CCN(c6cc7c(cc6F)n(C6CCC(=O)NC6=O)c(=O)n7C)CC5)CC4)nc3)cc2c1C#N (stereo not shown),,,"female CD-1 mouse, plasma","oral, 20 mg/kg",AUC(0-t),2130 ng·h/mL
C=C(CN)COc1cccc(Cn2c(=S)[nH]c(=O)c3[nH]cnc32)c1,MPO,enzyme activity,,30 µM,inhibition,100%
Cc1ccc(O)c(C)c1-c1cnc2[nH]c(-c3cnc(N4CCC(CN5CCN(c6ccc7c(c6)C(=O)N(C6CCC(=O)NC6=O)C7=O)CC5)CC4)nc3)cc2c1C#N (stereo not shown),"Protein cereblon (CRBN, Homo sapiens, UniProt Q96SW2)",binding,,,pIC50,6.43
NC/C(=C\F)COc1cccc(Cn2c(=S)[nH]c(=O)c3[nH]cnc32)c1,"Myeloperoxidase (Mus musculus, UniProt P11247)","ELISA, item: myeloperoxidase","mice, zymosan or thioglycolate peritonitis, peritoneal lavage",30 mg/kg,protein level,2170 ng/mL and 2620 ng/mL and 2140 ng/mL
Cc1ccc(O)c(C)c1-c1cnc2[nH]c(-c3cnc(N4CCC(CN5CCN(c6ccc(NC7CCC(=O)NC7=O)cc6F)CC5)CC4)nc3)cc2c1C#N (stereo not shown),,,"Beagle dog, male, plasma","oral, 5 mg/kg, intravenous and oral dosing",oral bioavailability,9.4%
O=c1[nH]c(=S)n(C[C@H]2CCCO2)c2nc[nH]c12,MPO,enzyme activity,,0.0137 µM,inhibition,24% and 1.39% and 27.7% and 17.9% and 23% and 1.26% and 2.22%

# For quick reference, copied from above (block 2):
target,conditions,SYPRO Orange fluorescence
DCAF1,35 °C,10200 a.u.
DCAF1,47.8 °C,14200 a.u.
DCAF1,92.21 °C,32600 a.u.
DCAF1,45 °C,13000 a.u.
